Results pooled from the literature.
Protocols differ between the studies behind these lines. Several values in a cell are separate wells, animals, samples, runs or records. ± marks the error that the study gave.
FKBP5: Peptidyl-prolyl cis-trans isomerase FKBP5 (FKBP5, Homo sapiens, UniProt Q13451)
Chain of UniProt Q13451 (whole entry, looked up): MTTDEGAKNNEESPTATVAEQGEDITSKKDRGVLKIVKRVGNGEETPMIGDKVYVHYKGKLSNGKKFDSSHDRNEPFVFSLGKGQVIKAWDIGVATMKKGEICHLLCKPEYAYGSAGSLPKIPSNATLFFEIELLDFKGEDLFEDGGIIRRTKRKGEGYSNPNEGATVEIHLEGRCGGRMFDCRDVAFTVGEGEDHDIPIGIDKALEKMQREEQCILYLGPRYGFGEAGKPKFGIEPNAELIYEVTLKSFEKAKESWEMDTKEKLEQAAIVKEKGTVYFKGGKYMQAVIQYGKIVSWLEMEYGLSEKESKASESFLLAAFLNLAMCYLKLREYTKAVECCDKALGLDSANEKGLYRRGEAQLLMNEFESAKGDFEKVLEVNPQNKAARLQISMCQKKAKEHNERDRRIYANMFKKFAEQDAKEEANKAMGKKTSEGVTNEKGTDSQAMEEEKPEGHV
CA2: Carbonic anhydrase 2 (CA2, Bos taurus, UniProt P00921)
Chain of UniProt P00921 (whole entry, looked up): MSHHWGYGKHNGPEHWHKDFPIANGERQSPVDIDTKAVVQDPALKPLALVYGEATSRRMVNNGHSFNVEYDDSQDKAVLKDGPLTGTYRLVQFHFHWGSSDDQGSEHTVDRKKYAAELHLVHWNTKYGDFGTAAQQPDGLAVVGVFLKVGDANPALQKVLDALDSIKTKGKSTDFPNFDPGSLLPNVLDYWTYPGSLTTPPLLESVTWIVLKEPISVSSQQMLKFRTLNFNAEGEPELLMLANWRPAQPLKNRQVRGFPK
chemotaxis protein CheW: chemotaxis protein CheW (Vibrio campbellii, UniProt A0A0A3EMQ5)
KAI2: KAI2 (Arabidopsis thaliana, UniProt Q9SZU7)
Chain of UniProt Q9SZU7 (whole entry, unmodified, looked up): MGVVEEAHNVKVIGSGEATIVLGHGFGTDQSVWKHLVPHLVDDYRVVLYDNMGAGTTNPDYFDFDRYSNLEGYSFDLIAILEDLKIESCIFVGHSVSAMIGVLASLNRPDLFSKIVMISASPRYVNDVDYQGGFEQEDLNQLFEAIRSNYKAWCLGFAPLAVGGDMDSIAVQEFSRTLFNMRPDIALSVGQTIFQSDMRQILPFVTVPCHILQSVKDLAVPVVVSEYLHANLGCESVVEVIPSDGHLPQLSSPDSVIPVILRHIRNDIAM
Chain of UniProt P20782 (whole entry, unmodified, looked up): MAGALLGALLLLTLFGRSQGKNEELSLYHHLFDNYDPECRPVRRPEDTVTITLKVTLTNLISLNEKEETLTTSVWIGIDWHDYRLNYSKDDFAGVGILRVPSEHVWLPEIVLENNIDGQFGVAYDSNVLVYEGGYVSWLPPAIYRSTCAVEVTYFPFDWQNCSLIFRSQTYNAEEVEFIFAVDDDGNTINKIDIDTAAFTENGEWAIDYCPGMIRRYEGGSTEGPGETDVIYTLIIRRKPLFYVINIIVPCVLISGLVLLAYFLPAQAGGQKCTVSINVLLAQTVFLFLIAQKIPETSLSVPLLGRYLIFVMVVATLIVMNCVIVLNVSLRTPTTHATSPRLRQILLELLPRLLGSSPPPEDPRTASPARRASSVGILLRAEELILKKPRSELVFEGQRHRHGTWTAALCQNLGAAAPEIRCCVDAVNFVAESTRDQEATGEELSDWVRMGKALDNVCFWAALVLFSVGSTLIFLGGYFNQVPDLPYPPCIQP
Chain of UniProt P02716 (whole entry, unmodified, looked up): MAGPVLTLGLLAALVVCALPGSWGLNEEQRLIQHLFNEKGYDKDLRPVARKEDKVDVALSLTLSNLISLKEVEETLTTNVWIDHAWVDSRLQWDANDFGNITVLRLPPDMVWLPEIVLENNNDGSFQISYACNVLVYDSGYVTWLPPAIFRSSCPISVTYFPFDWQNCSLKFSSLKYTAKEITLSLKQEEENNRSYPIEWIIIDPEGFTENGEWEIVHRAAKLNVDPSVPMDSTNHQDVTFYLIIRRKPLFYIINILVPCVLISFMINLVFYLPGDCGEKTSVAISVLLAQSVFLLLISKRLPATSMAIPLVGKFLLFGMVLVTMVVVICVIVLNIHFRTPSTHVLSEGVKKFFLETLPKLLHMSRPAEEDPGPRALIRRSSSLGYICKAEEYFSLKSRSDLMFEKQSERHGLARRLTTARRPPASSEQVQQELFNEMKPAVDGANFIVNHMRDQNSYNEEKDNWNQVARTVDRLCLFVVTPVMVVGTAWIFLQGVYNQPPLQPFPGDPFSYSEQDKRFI
Chain of UniProt P04756 (whole entry, unmodified, looked up): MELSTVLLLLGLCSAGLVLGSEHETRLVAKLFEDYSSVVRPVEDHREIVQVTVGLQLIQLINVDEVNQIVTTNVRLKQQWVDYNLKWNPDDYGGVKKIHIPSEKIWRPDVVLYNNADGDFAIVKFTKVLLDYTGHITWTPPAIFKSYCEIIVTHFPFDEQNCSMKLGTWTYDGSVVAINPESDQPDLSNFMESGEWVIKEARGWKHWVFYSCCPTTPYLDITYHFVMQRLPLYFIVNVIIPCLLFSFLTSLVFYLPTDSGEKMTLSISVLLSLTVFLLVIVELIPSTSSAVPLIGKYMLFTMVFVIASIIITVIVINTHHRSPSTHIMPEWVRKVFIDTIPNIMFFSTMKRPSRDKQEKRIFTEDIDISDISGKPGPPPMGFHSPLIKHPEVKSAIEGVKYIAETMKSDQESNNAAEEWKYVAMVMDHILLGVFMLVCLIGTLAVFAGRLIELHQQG
Chain of UniProt P51812 (whole entry, looked up): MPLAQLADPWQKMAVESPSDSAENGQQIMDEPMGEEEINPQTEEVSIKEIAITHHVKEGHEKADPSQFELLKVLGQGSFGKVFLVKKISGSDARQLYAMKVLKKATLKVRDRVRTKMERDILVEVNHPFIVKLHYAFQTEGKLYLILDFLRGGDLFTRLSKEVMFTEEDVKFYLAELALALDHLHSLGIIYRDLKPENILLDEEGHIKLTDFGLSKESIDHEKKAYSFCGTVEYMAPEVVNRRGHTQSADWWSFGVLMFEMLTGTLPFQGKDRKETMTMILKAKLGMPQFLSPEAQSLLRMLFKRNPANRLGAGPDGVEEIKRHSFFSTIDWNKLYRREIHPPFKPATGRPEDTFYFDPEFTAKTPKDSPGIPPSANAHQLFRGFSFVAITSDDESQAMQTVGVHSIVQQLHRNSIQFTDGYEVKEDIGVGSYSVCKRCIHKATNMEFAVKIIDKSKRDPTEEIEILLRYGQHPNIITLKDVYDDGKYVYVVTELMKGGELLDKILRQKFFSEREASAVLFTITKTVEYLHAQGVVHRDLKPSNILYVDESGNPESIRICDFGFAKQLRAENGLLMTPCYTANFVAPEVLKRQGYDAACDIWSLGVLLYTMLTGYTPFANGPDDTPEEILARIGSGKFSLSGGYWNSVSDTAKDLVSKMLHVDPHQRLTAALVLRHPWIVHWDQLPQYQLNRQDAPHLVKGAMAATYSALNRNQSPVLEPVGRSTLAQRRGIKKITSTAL
Chain of UniProt P31725 (whole entry, looked up): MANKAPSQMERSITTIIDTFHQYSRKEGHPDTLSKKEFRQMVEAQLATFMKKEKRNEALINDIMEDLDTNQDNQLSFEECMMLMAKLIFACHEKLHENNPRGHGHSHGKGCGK
Chain of UniProt P51451 (whole entry, looked up): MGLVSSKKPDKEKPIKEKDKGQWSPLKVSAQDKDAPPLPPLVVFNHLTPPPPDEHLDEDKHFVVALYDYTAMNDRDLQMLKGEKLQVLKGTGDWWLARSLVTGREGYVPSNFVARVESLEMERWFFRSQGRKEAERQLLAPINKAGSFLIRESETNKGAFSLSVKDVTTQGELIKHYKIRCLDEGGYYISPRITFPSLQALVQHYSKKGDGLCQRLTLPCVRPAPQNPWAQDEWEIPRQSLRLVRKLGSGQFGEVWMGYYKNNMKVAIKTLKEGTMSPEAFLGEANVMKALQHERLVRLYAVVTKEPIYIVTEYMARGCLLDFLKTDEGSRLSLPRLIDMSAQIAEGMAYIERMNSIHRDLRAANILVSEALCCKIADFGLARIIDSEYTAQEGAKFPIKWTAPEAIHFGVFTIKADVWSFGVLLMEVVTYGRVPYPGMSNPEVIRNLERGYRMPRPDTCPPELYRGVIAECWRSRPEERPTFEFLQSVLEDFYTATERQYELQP
Chain of UniProt Q96SW2 (whole entry, looked up): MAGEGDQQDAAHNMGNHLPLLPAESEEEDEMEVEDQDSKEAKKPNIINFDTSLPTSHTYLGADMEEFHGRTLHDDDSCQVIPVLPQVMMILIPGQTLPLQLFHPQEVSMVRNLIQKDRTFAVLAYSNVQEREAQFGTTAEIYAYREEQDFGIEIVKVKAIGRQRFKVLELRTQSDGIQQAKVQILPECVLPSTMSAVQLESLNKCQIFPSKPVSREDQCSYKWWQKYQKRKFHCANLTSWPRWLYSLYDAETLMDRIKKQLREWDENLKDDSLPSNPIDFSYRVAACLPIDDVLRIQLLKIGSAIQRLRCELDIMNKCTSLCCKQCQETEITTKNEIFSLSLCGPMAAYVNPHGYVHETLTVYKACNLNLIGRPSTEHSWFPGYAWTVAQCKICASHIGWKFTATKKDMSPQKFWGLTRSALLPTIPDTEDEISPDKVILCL

`Cc1cccc2c1N(C(=O)n1ccnn1)CC2` has a Kd of 21.3 µM and 33.6 µM and 30.9 µM (KAI2 (Arabidopsis thaliana, UniProt Q9SZU7, S95C); ITC; S95C mutant).
With `C=CC(=O)N1CC2(CCN(c3nc(OC4CCN(CCCOC)CC4)nc4c(OCC(F)(F)F)c(-c5c(C)ccc6[nH]ncc56)c(C5CC5)cc34)CC2)C1` the Kd was 1.33 ± 0.22 µM (GTPase KRas, GDP-bound (KRAS, Homo sapiens, UniProt P01116)).
The Kd of `C=CC1CN(Cc2ccccn2)C(=O)C2CCCC1N2S(=O)(=NC)c1cc(Cl)cc(Cl)c1` (centres unmarked) is reported as greater than 40 µM (FKBP5; ligand displacement, FP).
With `CN(C)c1ccc2c(c1)C(=O)N(CCc1ccc(O)cc1)C2=O` the Kd was 12.9 µM and ~13 µM (CA2; binding).
The Kd of `C=CC(=O)N1C[C@H](C)N(c2nc(OC[C@@]34CCCN3C[C@H](F)C4)nc3c(F)c(-c4ccc(F)c5sc(N)c(C#N)c45)c(C(F)(F)F)cc23)C[C@H]1C` is reported as 0.00328 ± 0.0011 µM (GTPase KRas, GDP-bound (KRAS, Homo sapiens, UniProt P01116, G12V); SPR).
The Kd of `C[N+](C)(C)CCOC(N)=O` is reported as 0.69 µM (Chrnd/Chrna1/Chrne (Mus musculus, UniProt P02716+P04756+P20782, G173K/S470W); resting state binding, agonist, single-channel kinetics).
`NC[C@H](O)c1ccc(O)c(O)c1` gave a Kd of 0.74 ± 0.42 µM (chemotaxis protein CheW; binding, microscale thermophoresis; PBS with 0.05% Tween 20; room temperature, His-tagged protein, labelled).
`C=CC1CN(Cc2ccccn2)C(=O)C2CCCC1N2[S+]([O-])c1cc(Cl)cc(Cl)c1` (centres unmarked) gave a Kd of 2.24 µM (FKBP5; ligand displacement, FP).
With `CC(C)(C)n1cc(CN(Cc2cn(CCOCCOCCOCCOCCOCCO)nn2)Cc2cn(C(C)(C)C)nn2)nn1` the Kd was 0.000209 µM (Cu(I); binding, bicinchoninic acid competition; 2000 µM, with: bicinchoninic acid 40 µM).
`COC1CN([C@H]2CC[C@H]([C@@]3(C)Oc4c(Cl)cc(C(=O)NCc5c(SC)cc(C)[nH]c5=O)c(C)c4O3)CC2)C1` — result for “log2 fold change”: 1.4 (RNA-seq, refers to: MANSC1; human, whole blood; dose not given, 24 h; reference: pretreatment baseline).
`O=C(N1CCc2ccccc21)n1ccnc1` has a Kd of 115 µM and 92.6 µM (KAI2; isothermal titration calorimetry).
With `C=CC(=O)N1CCCN(C(=O)c2cc(Sc3cnc(NC(=O)C4CC4)s3)c(C)cc2OC)C[C@H]1C` the Kd was 4.7 µM (Tyrosine-protein kinase Blk (BLK, Homo sapiens, UniProt P51451); binding, competition with immobilised ligand).
With `CC(CCc1ccccc1)NCC(O)c1ccc(O)c(C(N)=O)c1` (centres unmarked) the Kd was 0.64 ± 0.56 µM (chemotaxis protein CheW).
The Kd of `Cn1ncc2cc(-c3cncc(Cl)c3N3CCC4(CCNC4=O)CC3)ccc21` is reported as 0.004 µM (MED14 human; SILAC competition; LS174T-L5 lysate).
`NS(=O)(=O)c1ccc(N2C(=O)c3ccc(N4CCOCC4)cc3C2=O)cc1` gave a Kd of 0.28 µM (CA2; binding).
`Cc1c[nH]c2nccc(-c3ccc(C(=O)N[C@@H]4c5c(F)cc(C(F)F)cc5C[C@@H]4O)cn3)c12` gave a Kd of 0.47 µM (Ribosomal protein S6 kinase alpha-3, N-terminal kinase domain (RPS6KA3, Homo sapiens, UniProt P51812); binding, competition with immobilised ligand).
`CC[C@H](C)[C@H](NC(=O)[C@H](CC(=O)N[C@@H]1O[C@H](CO)[C@@H](O[C@@H]2O[C@H](CO)[C@@H](O[C@@H]3O[C@H](CO[C@H]4O[C@H](CO[C@H]5O[C@H](CO)[C@@H](O)[C@H](O)[C@@H]5O)[C@@H](O)[C@H](O[C@H]5O[C@H](CO)[C@@H](O)[C@H](O)[C@@H]5O)[C@@H]4O)[C@@H](O)[C@H](O[C@H]4O[C@H](CO)[C@@H](O)[C@H](O)[C@@H]4O)[C@@H]3O)[C@H](O)[C@H]2NC(C)=O)[C@H](O)[C@H]1NC(C)=O)NC(=O)[C@H](Cc1ccccc1)NC(=O)[C@H](CO)NC(=O)[C@H](CO)NC(=O)[C@H](Cc1c[nH]cn1)NC(=O)[C@H](CSCC(N)=O)NC(=O)[C@@H](NC(=O)CCCCCNC(=O)CCCC[C@@H]1SC[C@@H]2NC(=O)N[C@@H]21)C(C)C)C(=O)N[C@H](C(=O)N[C@H](C(=O)N[C@@H](CC(=O)O)C(=O)N[C@H](C(=O)N[C@@H](CCCCN)C(=O)N[C@@H](CC(=O)O)C(=O)N[C@@H](CCCNC(=N)N)C(=O)N[C@@H](CCCCN)C(=O)N[C@@H](CCC(N)=O)C(=O)N[C@@H](CCCCN)C(=O)N[C@H](C(=O)N[C@@H](CC(N)=O)C(=O)N[C@@H](C)C(=O)N[C@H](C(=O)N[C@@H](CSCC(N)=O)C(=O)N[C@@H](Cc1ccc(O)cc1)C(N)=O)[C@@H](C)O)C(C)C)C(C)C)[C@@H](C)O)[C@@H](C)O` has a Kd of 319 ± 9 µM (PG9 Fab (human); binding, SPR; 25 °C, immobilized V1V2 glycopeptide).
`Cn1c(=O)n(C2CCC(=O)NC2=O)c2ccc(C3CCN(CC(=O)Nc4cccc(CS(=O)(=O)N5CC[C@H](Nc6cccc(-c7sc(C(=O)O)c(OCC(=O)O)c7Cl)c6)CC5(C)C)c4)CC3)cc21` (some centres unmarked) gave a Kd of roughly 2.2 µM (Protein cereblon, with DDB1 (CRBN, Homo sapiens, UniProt Q96SW2); isothermal titration calorimetry; PBS, 2% DMSO; 20 °C).
The Kd of `O=C1[C@@H]2CCC[C@H]([C@@H](C(O)CO)CN1Cc1ccccn1)N2S(=O)(=O)c1cc(Cl)cc(Cl)c1` (some centres unmarked) is reported as 0.03 µM (FKBP5; ligand displacement, FP).
`O=C(N1CCc2cccc([N+](=O)[O-])c21)n1ccnn1` gave a Kd of 711 µM (KAI2; binding, ITC).
`C[n+]1c(/C=C/c2ccc(N(c3ccccc3)c3ccccc3)cc2)cc(/C=C2\Sc3ccccc3N2CCCN2CCCC2)c2ccccc21` gave a Kd of 38.6 µM (VEGF DNA; isothermal titration calorimetry; pH 7.4, 25 °C, 2% DMSO).
`Cc1cccc2c1N(C(=O)n1nccn1)CC2` has a Kd of 210 µM (KAI2; binding, ITC).
`CC1(C)[C@@H]2CC[C@@]1(C)[C@@H](O)C2` has a Kd of 0.0033 µM (Protein S100-A9 (S100a9, Mus musculus, UniProt P31725)).
The Kd of `O=C(c1ccco1)N1CCc2ccccc21` is reported as 251 µM (KAI2; ITC).
For `CN(C)c1ccc2c3c(cccc13)C(=O)N(CCc1ccc(S(N)(=O)=O)cc1)C2=O`, the Kd was 0.16 µM (CA2; binding).
`O=C(N1CCc2ccccc21)n1nccn1` gave a Kd of 316 µM (KAI2; binding, ITC).
`CC(C)(C)n1cc(CN(Cc2cn(CC(=O)O)nn2)Cc2cn(C(C)(C)C)nn2)nn1` gave a Kd of 0.00011 µM (Cu(I); binding, bicinchoninic acid competition; 500 µM, with: bicinchoninic acid 40 µM).
With `Cc1cccc2c1N(C(=O)n1ccnc1)CC2` the Kd was 14.9 µM (KAI2; binding, ITC).
`Cc1ncsc1-c1ccc(C(C)NC(=O)C2CC(O)CN2C(=O)C(NC(=O)CCCCCCCCCCN2CCCC(Nc3ncc(Cl)c(Nc4ccccc4S(=O)(=O)C(C)C)n3)C2)C(C)(C)C)cc1` (centres unmarked): “log2 fold change” -1.22 (22Rv1; RNA-seq, refers to: MND1 mRNA; concentration not given; reference: DMSO).
